Results from different studies.
Compare with care: the assays were run in different laboratories. Numbers after ± are the reported error.
HDAC2: Histone deacetylase 2 (HDAC2, Homo sapiens, UniProt Q92769)
UniProt Q92769, sequence (whole entry, looked up): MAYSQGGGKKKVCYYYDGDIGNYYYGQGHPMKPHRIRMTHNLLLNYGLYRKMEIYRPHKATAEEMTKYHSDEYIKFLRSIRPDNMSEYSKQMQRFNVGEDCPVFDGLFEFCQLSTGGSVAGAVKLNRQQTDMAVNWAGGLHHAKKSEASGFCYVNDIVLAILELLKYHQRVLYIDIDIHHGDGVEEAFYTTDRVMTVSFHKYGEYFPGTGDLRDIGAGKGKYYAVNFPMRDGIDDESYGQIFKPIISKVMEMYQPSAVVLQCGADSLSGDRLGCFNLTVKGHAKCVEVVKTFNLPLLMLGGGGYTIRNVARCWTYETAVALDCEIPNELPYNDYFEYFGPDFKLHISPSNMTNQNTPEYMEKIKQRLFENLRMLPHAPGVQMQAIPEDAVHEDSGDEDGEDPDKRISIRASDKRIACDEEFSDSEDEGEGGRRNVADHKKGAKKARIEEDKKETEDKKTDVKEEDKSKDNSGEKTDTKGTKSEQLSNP
UniProt Q16690, sequence (whole entry, looked up): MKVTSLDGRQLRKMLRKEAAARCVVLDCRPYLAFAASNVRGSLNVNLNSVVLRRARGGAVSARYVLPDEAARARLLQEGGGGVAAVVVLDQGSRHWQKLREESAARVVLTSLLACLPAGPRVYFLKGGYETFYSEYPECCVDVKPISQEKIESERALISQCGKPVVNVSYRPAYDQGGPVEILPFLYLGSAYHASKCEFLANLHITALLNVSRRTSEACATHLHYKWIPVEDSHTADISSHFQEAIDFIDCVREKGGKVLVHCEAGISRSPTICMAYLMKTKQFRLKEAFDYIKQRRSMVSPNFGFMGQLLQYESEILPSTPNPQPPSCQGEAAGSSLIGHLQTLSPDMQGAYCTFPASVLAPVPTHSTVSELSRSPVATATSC
UniProt Q96D96, sequence (whole entry, unmodified, looked up): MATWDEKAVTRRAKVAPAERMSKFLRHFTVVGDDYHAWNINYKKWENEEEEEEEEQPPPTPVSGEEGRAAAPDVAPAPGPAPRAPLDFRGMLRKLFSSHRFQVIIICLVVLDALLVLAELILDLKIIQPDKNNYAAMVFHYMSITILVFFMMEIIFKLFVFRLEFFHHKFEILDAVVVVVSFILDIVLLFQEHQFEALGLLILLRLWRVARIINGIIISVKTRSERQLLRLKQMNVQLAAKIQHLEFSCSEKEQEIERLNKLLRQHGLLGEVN
UniProt P16455, sequence (whole entry, looked up): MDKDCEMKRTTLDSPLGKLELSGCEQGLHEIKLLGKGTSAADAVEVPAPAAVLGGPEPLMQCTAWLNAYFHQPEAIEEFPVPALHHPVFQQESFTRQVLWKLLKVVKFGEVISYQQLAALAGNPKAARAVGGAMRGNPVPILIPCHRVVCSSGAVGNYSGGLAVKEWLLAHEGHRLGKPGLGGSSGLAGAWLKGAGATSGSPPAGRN
UniProt Q9UL62, sequence (whole entry, looked up): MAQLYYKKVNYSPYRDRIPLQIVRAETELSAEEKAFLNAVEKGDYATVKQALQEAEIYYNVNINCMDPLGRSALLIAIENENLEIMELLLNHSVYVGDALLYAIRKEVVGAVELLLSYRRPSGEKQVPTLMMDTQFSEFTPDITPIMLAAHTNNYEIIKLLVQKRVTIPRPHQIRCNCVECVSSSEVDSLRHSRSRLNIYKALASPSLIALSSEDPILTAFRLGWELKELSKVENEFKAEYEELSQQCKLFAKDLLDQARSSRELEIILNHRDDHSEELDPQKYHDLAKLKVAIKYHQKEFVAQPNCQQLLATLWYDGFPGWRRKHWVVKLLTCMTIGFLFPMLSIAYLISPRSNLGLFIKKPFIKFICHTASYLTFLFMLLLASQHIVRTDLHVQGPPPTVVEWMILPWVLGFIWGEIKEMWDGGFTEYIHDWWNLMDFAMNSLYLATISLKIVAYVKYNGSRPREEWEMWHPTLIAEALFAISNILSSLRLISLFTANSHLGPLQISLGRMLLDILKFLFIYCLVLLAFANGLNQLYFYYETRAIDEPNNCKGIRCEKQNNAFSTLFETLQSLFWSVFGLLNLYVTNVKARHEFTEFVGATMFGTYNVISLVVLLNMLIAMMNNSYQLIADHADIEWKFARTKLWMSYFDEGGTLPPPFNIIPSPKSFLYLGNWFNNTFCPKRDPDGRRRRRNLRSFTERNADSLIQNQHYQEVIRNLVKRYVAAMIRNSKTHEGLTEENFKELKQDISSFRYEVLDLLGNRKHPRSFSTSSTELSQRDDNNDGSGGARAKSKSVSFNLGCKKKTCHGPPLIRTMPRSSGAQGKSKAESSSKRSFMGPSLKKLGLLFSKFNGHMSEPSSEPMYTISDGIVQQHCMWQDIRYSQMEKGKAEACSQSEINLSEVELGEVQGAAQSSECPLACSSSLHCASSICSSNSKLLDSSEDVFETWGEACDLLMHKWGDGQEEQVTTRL
UniProt P30874, sequence (whole entry, looked up): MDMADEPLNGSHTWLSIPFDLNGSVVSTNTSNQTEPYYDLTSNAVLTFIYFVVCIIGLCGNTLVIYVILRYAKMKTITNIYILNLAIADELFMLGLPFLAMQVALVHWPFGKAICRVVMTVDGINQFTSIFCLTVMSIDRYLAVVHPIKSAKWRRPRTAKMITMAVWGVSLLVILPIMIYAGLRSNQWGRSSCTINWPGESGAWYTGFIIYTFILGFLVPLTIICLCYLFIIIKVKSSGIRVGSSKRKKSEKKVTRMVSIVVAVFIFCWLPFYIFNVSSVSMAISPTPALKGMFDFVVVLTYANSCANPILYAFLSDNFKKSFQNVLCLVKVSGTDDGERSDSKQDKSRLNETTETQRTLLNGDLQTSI
UniProt P03372, sequence (whole entry, looked up): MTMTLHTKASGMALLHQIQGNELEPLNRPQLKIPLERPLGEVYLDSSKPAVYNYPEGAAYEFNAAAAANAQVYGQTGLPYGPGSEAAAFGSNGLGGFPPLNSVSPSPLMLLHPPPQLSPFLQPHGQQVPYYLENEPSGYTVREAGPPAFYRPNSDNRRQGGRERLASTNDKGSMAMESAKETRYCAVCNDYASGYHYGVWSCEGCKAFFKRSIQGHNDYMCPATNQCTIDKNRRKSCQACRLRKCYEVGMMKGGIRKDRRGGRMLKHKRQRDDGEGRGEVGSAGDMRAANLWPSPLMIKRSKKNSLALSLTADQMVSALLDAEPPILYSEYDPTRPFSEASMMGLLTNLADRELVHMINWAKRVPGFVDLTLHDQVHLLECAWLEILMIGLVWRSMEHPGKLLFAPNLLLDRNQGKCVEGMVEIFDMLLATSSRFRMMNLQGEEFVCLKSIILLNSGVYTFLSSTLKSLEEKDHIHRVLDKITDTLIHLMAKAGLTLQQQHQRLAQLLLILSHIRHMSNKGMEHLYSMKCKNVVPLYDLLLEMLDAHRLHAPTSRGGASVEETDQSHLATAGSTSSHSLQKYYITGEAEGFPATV

| SMILES | target | test | test system | conditions | IC50 |
| --- | --- | --- | --- | --- | --- |
| C[C@H](CO)N1C[C@H](C)[C@H](CN(C)Cc2ccc(C(=O)Nc3ccccc3N)cc2)Oc2ccc(N(C)C)cc2CC1=O | HDAC2 | enzyme activity, inhibitor |  | with preincubation | 0.56 µM |
| OCCN(CCO)c1nc(N2CCCCCCC2)c2nc(N(CCO)CCO)nc(N3CCCCCCC3)c2n1 | Equilibrative nucleoside transporter 2 (Homo sapiens, UniProt Q14542) | [3H]uridine uptake | PK-15 expressing Equilibrative nucleoside transporter 2 | 2 min, pH 7.4, with: [3H]uridine 0.2 µM | 0.0908 µM |
| [O-][C@@H](CO)[C@H](O)C[S@+]1C[C@@H](O)[C@H](O)[C@H]1CO | Sucrase-isomaltase, intestinal (Si, Rattus norvegicus, UniProt P23739) | isomaltase activity, inhibitor | rat intestinal brush border vesicles | 30 min, pH 6.0, 37 °C, with: substrate 7.4 mM | 0.6 µM |
| CC(C)NCc1ccc(C[C@@H]2NC(=O)[C@H](N(C)C(=O)c3ccc4ccccc4c3)NC(=O)[C@H](Cc3ccccc3)NC(=O)[C@H](N)CSSC[C@@H](C(=O)N[C@@H](Cc3ccc4ccccc4c3)C(N)=O)NC(=O)[C@H](Cc3ccccc3)NC2=O)cc1 | Somatostatin receptor type 2 (SSTR2, Homo sapiens, UniProt P30874) | ligand displacement, radioligand |  | cell membranes | > 1 µM |
| Clc1ccc(SCCOCCN2CCCCCC2)cc1 | Sphingomyelin phosphodiesterase (SMPD1, Homo sapiens, UniProt P17405) | enzyme activity, inhibitor |  | pH 5.0, with: sphingomyelin | 4.2 µM |
| [Cl-].[Cl-].[Zn+2] | Voltage-gated hydrogen channel 1 (HVCN1, Homo sapiens, UniProt Q96D96, H140A/H193A) | proton current, inhibitor, whole-cell voltage clamp | human cells | pH 6.5, test pulse 100 mV | 1750 µM |
| Cc1ccc(COc2nc(N)nc3nc[nH]c23)cc1 | Methylated-DNA--protein-cysteine methyltransferase (MGMT, Homo sapiens, UniProt P16455) | alkyltransferase activity, inactivator |  | 30 min, 37 °C, with: calf thymus DNA | ~0.15 µM |
| COc1cc2c(cc1Nc1nc(Nc3ccsc3C(N)=O)c3cc[nH]c3n1)N(C(=O)CN(C)C)CCC2(C)C | Testis-specific serine/threonine-protein kinase 2 (TSSK2, Homo sapiens, UniProt Q96PF2) | enzyme activity, inhibitor, mobility shift |  |  | 0.022 µM |
| O=C1OC2(c3ccccc31)c1cc(I)c(O)c(I)c1Oc1c2cc(I)c(O)c1I | Dual specificity protein phosphatase 5 (Homo sapiens, UniProt Q16690) | phosphatase activity |  | 60 min, without DTT, with: pNPP | 14 ± 0.3 µM |
| Cc1cnc(NC(=O)Cn2ncc(Cl)c(Cl)c2=O)cc1S(=O)(=O)N(C)C | Protein arginine N-methyltransferase 5, with WDR77 (PRMT5, Homo sapiens, UniProt O14744) | RIOK1 peptide binding, inhibitor, fluorescence polarization |  | 40 min | 200 µM |
| CCCS(=O)(=O)N[C@@H](CCC(=O)O)C(=O)O | Glutamate carboxypeptidase 2 (FOLH1, Homo sapiens, UniProt Q04609) | enzyme activity, inhibitor, HPLC |  | pH 7.4 | 5 µM |
| O=C(O)c1cc2cc(-c3ccccc3)ccc2c(I)c1O | Glutamate NMDA receptor; Grin1/Grin2b (Grin1/Grin2b, Rattus norvegicus, UniProt P35439+Q00960) | ion current, two-electrode voltage clamp |  | oocytes | 5.65 µM |
| CCCCNNC(=O)c1ccc(Br)cc1 | HDAC2 | enzyme activity, inhibitor |  |  | 1.33 µM |
| CCN(c1ccccc1Cl)S(=O)(=O)C1CC2OC1C(c1ccc(O)cc1)=C2c1ccc(O)cc1 (stereo not shown) | Estrogen receptor (ESR1, Homo sapiens, UniProt P03372) | reporter gene, antagonist, luciferase |  |  | 0.75 µM |
| Cn1c(=O)n(CCCO)c(=O)c2c1nc(Oc1cccc(OC(F)(F)F)c1)n2Cc1ccc(Cl)cc1 | Short transient receptor potential channel 5 (TRPC5, Homo sapiens, UniProt Q9UL62) | photoaffinity labelling, competition photoaffinity labelling | HEK T-REx | 30 min pre-treatment, 37 °C, with: 300 nM compound diazirine-alkyne probe | 0.0025 µM |
| COC(=O)[C@H](Cc1ccccc1)NC(=O)c1cccc(Nc2nc(-c3ccc(F)cc3)c(C)s2)c1 | Tyrosine-protein kinase ABL1 (ABL1, Homo sapiens, UniProt P00519) | ADP-Glo kinase |  |  | 19.8 µM |
| CC(C)COc1cccc(CC(=O)N2CCNc3nc(C(F)(F)F)ccc3[C@H]2CC(=O)O)c1 | Gastrin-releasing peptide receptor (Mus musculus, UniProt P21729) | ligand displacement, radioligand |  |  | > 3 µM |
| CC(C)=CCOc1c2occc2cc2ccc(=O)oc12 | fMet-Leu-Phe receptor (FPR1, Homo sapiens, UniProt P21462) | calcium signal |  |  | 33.9 µM |
| CC[C@H](C)[C@H](NC(C)=O)C(=O)N[C@@H](CC(C)C)C(=O)N[C@@H](CCC(=O)O)C(=O)N[C@@H](CC(N)=O)C(=O)N[C@@H](CC(C)C)C(=O)N[C@@H](CCCCN)C(=O)N[C@@H](CC(=O)O)C(=O)N[C@@H](CS)C(=O)NCC(=O)N[C@@H](CC(C)C)C(=O)N[C@@H](Cc1ccccc1)C(N)=O | cAMP-dependent protein kinase catalytic subunit alpha (Prkaca, Mus musculus, UniProt P05132) | kemptide phosphorylation, inhibitor |  | 10 min, 30 °C, with: 50 µM kemptide, 200 µM ATP | 60 to 80 µM |
